Measurements of several laboratories.
Compare with care: the assays were run in different laboratories.

| Compound | host | matrix | route | dose | time | setting | concentration |
| --- | --- | --- | --- | --- | --- | --- | --- |
| CC(C)NC(=O)N1CC=C(c2cc3c(Nc4ccc5scnc5c4)ncnc3s2)C1 | BALB/c mouse | plasma | oral | 10 mg/kg | 6 h | – | 52.8 ng/mL |
| CC(C)Cn1c(SCC(=O)N2CCc3ccccc3C2)nc2cc(Cl)ccc2c1=O | male C57BL/6 mouse | brain | intraperitoneal | 10 mg/kg | 24 h | – | 78 nM |
| COc1cnc2cccc(N3CCc4c(cc(Cn5ccnc5)cc4-c4cn(C)nc4C(F)(F)F)C3=O)c2c1 | female nude mouse | tumour | intraperitoneal | 100 mg/kg | 6 h | single dose, tumour-bearing | 23300 ng/g |
| Brc1ccccc1-c1nnc(CSc2nnnn2-c2ccccc2)o1 | male C57BL/6 mouse | brain | intraperitoneal | 10 mg/kg | 6 h | – | 78 nM |
| CC(C)C(=O)NC1CC=C(c2cc3c(Nc4ccc5scnc5c4)ncnc3s2)CC1 (stereo not drawn) | BALB/c mouse | plasma | oral | 10 mg/kg | 30 min | – | 959 ng/mL |
| Cc1c(C(=O)Nc2ccn(C)n2)ncn1Cc1cccc(C(F)(F)F)c1 | C57BL/6 mouse | brain | oral | 10 mg/kg | 7 h | single dose | 121 ng/mL |
| COc1cccc(C2CC(c3ccccc3Cl)Nc3nc(N)nn32)c1 (stereo not drawn) | male CD-1 mouse | plasma | intraperitoneal | 20 mg/kg | 3 h | single dose | 27000 nM |
| CCC(=O)N(C)c1ccc(Cl)c(Cl)c1 | mouse | brain | subcutaneous | 40 mg/kg | 15 min | – | 2440 nM |
| CC(C)NC(=O)N1CC=C(c2cc3c(Nc4ccc5scnc5c4)ncnc3s2)CC1 | BALB/c mouse | plasma | oral | 10 mg/kg | 2 h | – | 0.82 ng/mL |

Excerpt of the above:
| Compound | host | matrix | route | dose | time | setting | concentration |
| --- | --- | --- | --- | --- | --- | --- | --- |
| Cc1c(C(=O)Nc2ccn(C)n2)ncn1Cc1cccc(C(F)(F)F)c1 | C57BL/6 mouse | brain | oral | 10 mg/kg | 7 h | single dose | 121 ng/mL |
